{"data": "Results of several laboratories", "note": "Every numbered part comes from another study and shows a few of its results, in no order."}
{"data": "Block 1", "target": "RING finger protein unkempt homolog, zinc fingers 1-6, SBP tag (UNK, Homo sapiens, UniProt Q9C0B0, residues 30-357)", "method": "RNA Bind-n-Seq", "molecule type": "RNA", "sample": "in vitro", "concentration": "100 nM", "setting": "RNA with constant flanks, vertebrate orthologous sites, ends assumed", "baseline": "input RNA pool", "reading": "higher = stronger binding", "shared flanks, not repeated": "GGGAGUUCUACAGUCCGACGAUC … CAACAGAGGAUUGAGCAUCA", "sequence of UniProt Q9C0B0 (30-357, looked up)": "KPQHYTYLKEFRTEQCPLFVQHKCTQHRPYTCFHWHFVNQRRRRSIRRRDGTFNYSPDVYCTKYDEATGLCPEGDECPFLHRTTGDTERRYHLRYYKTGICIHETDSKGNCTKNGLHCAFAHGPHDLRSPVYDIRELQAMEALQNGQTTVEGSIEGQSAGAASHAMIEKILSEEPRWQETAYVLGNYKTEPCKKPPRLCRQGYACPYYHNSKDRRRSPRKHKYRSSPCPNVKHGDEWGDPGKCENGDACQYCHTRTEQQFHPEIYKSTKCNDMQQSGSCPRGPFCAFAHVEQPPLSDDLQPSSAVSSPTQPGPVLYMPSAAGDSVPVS"}
{"Strand": "UUGAGAACAGCUCUCCAAAUAGGAAUAGUAGUAAAAAAAAUAAGCAAAAUGAUAUUUGUAUAGAAAAAACAGAAGUUAAAUCAUGUAAAGUAAAUGCUGCCAAUCUUCCAGGUCCUAAAG", "bound/input enrichment [ratio]": 0.903}
{"Strand": "UGUGCUCAUGCUCUUCUAGGGAAGAAAUGAACUGGGGAGAACUGUCCCCUUUUUAUAGAUUAGUUUGUUUCUAAAUUAUGACCAAAAAAUAUUUUGCUAUUUCUUUCUUUAUAUAUGGAC", "bound/input enrichment [ratio]": 1.02}
{"Strand": "AUUACUGUUAAGCACUGUGUUCCAGACGGUGUCUGACUUAGUGUAACCUAGGAGAUUUUCUAGUUUUAUUUUAACGAAACCCUGAUGGGCGCACAGCAGUGAGGAGAACAGCGUCUUUUA", "bound/input enrichment [ratio]": 0.796}
{"Strand": "UCCCAGCACUUUGAUAAAAAGUGUGGACUGGUUGCUUGUAUUUUCCUUAUUCUUUUUAAUUAGUUUUAUUAUGUAUGCUACCAUUCGAACUGAGAGUAUUCGGUGGUUAAUUCCAGGACA", "bound/input enrichment [ratio]": 3.38}
{"Strand": "CCAGUAUGUGUGUGCAUUAGUCACAUUCCUCUCUGUUCUGUUGAAGGAAAAAGAGACAUUUUAACCCUUUUAAGGUUGACUUUAUUUUAUGUUAUUUGGUUGCAUGAAGUUGCCCUUAAU", "bound/input enrichment [ratio]": 0.343}
{"Strand": "UCACUUACAGAGUGGCAUCUAGUCAACAUGCAAGUAGACCAGCUCUGCUGAUUUGAAAUUUAGAUUUUUUAAUUAUGUACUGGGGACAGGUUUUUGUCGCUUUACAUUGCUUCCUAGUUU", "bound/input enrichment [ratio]": 3.53}
{"Strand": "CUCACUUCCAGGUUGGAUCUAGUGGAAAAGUCAUAGGAAUUGACCACAUUAAAGAGCUAGUAGAUGACUCAAUAAAUAAUGUCAGAAAGGACGAUCCAAUGCUUUUGUCUUCAGGGAGAG", "bound/input enrichment [ratio]": 0.621}
{"Strand": "UUCAUUACCUGAGCCGAGUGGAGGUGACAGAGUUUGAAGACAUCAAGUCAGGCUACAGAAUAGAUUUUGUAAGUGUUUAUGGUGUCACGUAACACUUUGGUGACCUAUUUUUAUUUUUUA", "bound/input enrichment [ratio]": 0.581}
{"data": "Block 2", "target": "Histone acetyltransferase KAT6A, both winged helices, GST fusion (KAT6A, Homo sapiens, UniProt Q92794, residues 1-181)", "method": "protein binding microarray", "molecule type": "double-stranded DNA, one strand shown", "sample": "in vitro", "concentration": "not given", "setting": "8-mer, flanks averaged, mean of 2 arrays, mostly near background", "baseline": "not given", "reading": "higher = stronger binding", "Residues (chain)": "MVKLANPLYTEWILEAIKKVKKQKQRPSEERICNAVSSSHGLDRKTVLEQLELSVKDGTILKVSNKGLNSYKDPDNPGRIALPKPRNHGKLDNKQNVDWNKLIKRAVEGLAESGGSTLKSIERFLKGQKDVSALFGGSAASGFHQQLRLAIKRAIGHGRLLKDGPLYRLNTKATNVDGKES"}
{"Strand": "TCTTGGCA", "E-score": -0.196}
{"Strand": "AGGTAGAA", "E-score": -0.24}
{"Strand": "AACGAATA", "E-score": -0.0289}
{"Strand": "CTTTAGAC", "E-score": -0.075}
{"Strand": "ACCGCGGG", "E-score": 0.371}
{"Strand": "AAGCCGTC", "E-score": 0.315}
{"Strand": "CACACAAC", "E-score": 0.0554}
{"Strand": "AACCTTCG", "E-score": -0.0922}
{"Strand": "CGGGTAAG", "E-score": 0.117}
{"Strand": "AGTAAAAA", "E-score": -0.124}
{"Strand": "ACAGGGCT", "E-score": -0.0788}
{"Strand": "AAATTCCG", "E-score": 0.0993}
{"Strand": "TCATCGCA", "E-score": -0.00136}
{"Strand": "TACTACGA", "E-score": -0.129}
{"Strand": "AGTGACAT", "E-score": -0.0693}
{"Strand": "AACGGTGT", "E-score": 0.0632}
{"Strand": "CCGCAAAC", "E-score": 0.0992}
{"Strand": "AGCGTGAA", "E-score": 0.0355}
{"Strand": "GAGGGGCA", "E-score": -0.189}
{"Strand": "CCCAGCCC", "E-score": -0.124}
{"data": "Block 3", "target": "Sal-like protein 4, full length isoform B (SALL4, Homo sapiens, UniProt Q9UJQ4-2, residues 1-616)", "method": "universal PBM", "molecule type": "double-stranded DNA, one strand shown", "sample": "in vitro", "concentration": "not given", "setting": "8-mer, flanks averaged, mean of replicates", "reading": "higher = stronger binding", "Target sequence (chain)": "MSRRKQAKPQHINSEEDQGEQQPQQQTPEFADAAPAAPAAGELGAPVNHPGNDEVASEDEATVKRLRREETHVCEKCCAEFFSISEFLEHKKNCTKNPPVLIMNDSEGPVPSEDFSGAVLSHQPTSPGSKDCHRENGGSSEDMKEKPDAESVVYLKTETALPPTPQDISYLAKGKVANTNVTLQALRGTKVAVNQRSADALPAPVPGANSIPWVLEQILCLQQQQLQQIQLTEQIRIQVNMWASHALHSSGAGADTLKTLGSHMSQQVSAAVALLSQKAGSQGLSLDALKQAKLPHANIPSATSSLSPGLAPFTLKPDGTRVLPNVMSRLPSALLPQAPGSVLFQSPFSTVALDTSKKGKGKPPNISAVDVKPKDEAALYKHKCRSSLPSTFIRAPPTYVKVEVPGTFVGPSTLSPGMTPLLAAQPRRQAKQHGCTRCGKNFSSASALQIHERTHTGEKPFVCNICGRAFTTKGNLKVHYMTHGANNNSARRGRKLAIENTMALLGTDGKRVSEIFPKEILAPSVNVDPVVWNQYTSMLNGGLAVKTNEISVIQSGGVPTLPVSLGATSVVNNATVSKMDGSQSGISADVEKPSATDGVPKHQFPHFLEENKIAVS"}
{"Strand": "ATTTGCGA", "E-score": 0.196}
{"Strand": "CCGAGAGG", "E-score": -0.146}
{"Strand": "ATTCGGAG", "E-score": -0.0958}
{"Strand": "CTACTAGC", "E-score": 0.0429}
{"Strand": "GAGTTCTA", "E-score": 0.0398}
{"Strand": "AGTGTTAC", "E-score": 0.144}
{"Strand": "CGCAAAAA", "E-score": 0.214}
{"Strand": "GTTATTTA", "E-score": 0.301}
{"Strand": "AGTATCCA", "E-score": 0.0362}
{"Strand": "AACTGTAT", "E-score": 0.323}
{"Strand": "CACGCCGG", "E-score": -0.249}
{"Strand": "GGACGTAC", "E-score": -0.0557}
{"Strand": "GCCGCGCA", "E-score": -0.32}
{"Strand": "GAAATTTA", "E-score": 0.324}
{"Strand": "TAGGGCCA", "E-score": -0.0914}
{"Strand": "GGGCCTAA", "E-score": -0.295}
{"Strand": "CGAGTTTA", "E-score": -0.0655}
{"Strand": "AAACCTCG", "E-score": -0.0978}
{"Strand": "GACTTGGA", "E-score": -0.0992}
{"Strand": "AAAAGGTT", "E-score": 0.025}
{"Strand": "CGCGTTTA", "E-score": 0.183}
{"Strand": "ATGTCCGG", "E-score": -0.175}
{"Strand": "AGACGCGC", "E-score": -0.241}
{"Strand": "GCCACGGC", "E-score": -0.399}
{"Strand": "CTTGTGGA", "E-score": -0.169}
{"data": "Block 4", "target": "RNA binding protein fox-1 homolog 2, RRM domain, GST-SBP tag (RBFOX2, Homo sapiens, UniProt O43251-10, residues 100-194)", "method": "RNA Bind-n-Seq", "molecule type": "RNA", "sample": "in vitro", "concentration": "365 nM", "setting": "natural RNA segment, single round, ends assumed", "baseline": "no-protein control", "reading": "higher = stronger binding", "shared flanks, not repeated": "GGGAGUUCUACAGUCCGACGAUC … UGGAAUUCUCGGGUGCCAA"}
{"Strand": "CCAACCUUCGCACCCAUCCGCCCCCGCAGGCCUGGGGAGAACACAGAUAUGCUUGCACAGGCUGUGGAGUGUGACUUGUUGGAGACUGGACUAGGUGUUGUGUGGAAGUA", "RBNS enrichment (R)": 1.51}
{"Strand": "GUAACCUUGGAAGCUGACCAAAACCUGUUUCUACUGAGAAGACAGAUACAUCCUUACCCCUAGAAGGGAAUUCCUCCACCAGGAAAGGGCUCACCACCCAUCUGCACAAG", "RBNS enrichment (R)": 0.44}
{"Strand": "GGCAAGGAUUUGCCAAAAAUGUUCUGGGGGCCCAGCAAAUGCAGGAGCCGACCUGGGGCUGCACAUCCCUGCCCAUCCCCAGAAAGACUGUUCCUGUCAGGAUUUGUUUC", "RBNS enrichment (R)": 0.431}
{"Strand": "UACCUAAACUCAUGAUGUCUGUGGUGCUGUAAAAUUUAUACUAAAAUGUGGACUAUUUUGAAAUUAUAACCAUUUUUGAUGCCCUGAAUCUUGAGGUGACUUAUUUUGCA", "RBNS enrichment (R)": 5.19}
{"Strand": "GUCCCUUCCCCCUGAAGCAAUAGCCCCUCCCCACCUCCUGCAAUACGCCUUUCCAAUCUUUAUUGGAAGUCUCUCCCUGCCUACUUCCUAAUUUAUUCUUAUUUGACAGA", "RBNS enrichment (R)": 0.92}
{"Strand": "AGAGCAGGCAUGAGCUGGGCUGUGGUGCAGAGCAAGCAGACCCAGCCACACUGCUCAAAGGUCCCUGCGUGGGGAGGUGUCACACCAGGGGCACACCCAGGGCCACCUGG", "RBNS enrichment (R)": 0.543}
{"Strand": "AACGAGAAGAGAUGCCACAGUGUAUCGUGUCUCUAGUUGUAUUGUAUACCUGCUUAACAUCUGCGACAUUUCUCUCCCAAGUCAUUUGCCCCUUCCCGGAAUUUAAACAA", "RBNS enrichment (R)": 0.465}
{"Strand": "CUUGUUGGCCUGCUGGGUAGAACCUUUGCUUCAGGCUUCAUGCUCACAGCUUCCUGUCCUUUGCCCUUGACUGUACUGAGUAUGUGGGUGGUUGACCCAUAUAGGCCAUG", "RBNS enrichment (R)": 0.437}
{"note": "Some of these lines once more (block 2):"}
{"Strand": "AACCTTCG", "E-score": -0.0922}
{"Strand": "CGGGTAAG", "E-score": 0.117}
{"Strand": "AGTAAAAA", "E-score": -0.124}
{"Strand": "ACAGGGCT", "E-score": -0.0788}
{"Strand": "AAATTCCG", "E-score": 0.0993}
{"Strand": "TCATCGCA", "E-score": -0.00136}
{"Strand": "TACTACGA", "E-score": -0.129}
{"Strand": "AGTGACAT", "E-score": -0.0693}
